Results from different studies.
Organism: Acinetobacter baumannii

For `CCS(=O)(=O)[C@H]1[C@H](O)[C@@H](N)[C@@H](O[C@H]2[C@H](O[C@@H]3O[C@H](CO)[C@@H](O[C@H]4O[C@@H](CN)[C@@H](O)[C@H](O)[C@H]4N)[C@H]3O)[C@@H](O)[C@H](N)C[C@@H]2N)O[C@@H]1CO`, the MIC was greater than 128 µg/mL (reference strain).
`O=C(O)c1ccc(-n2cc(/C=N/Nc3cccc(Cl)c3F)c(-c3ccc4ccccc4c3)n2)cc1` has an MIC of greater than 50 µg/mL (ATCC 19606).
For `CC(C)C[C@@H]1NC(=O)[C@@H](CC(C)C)NC(=O)[C@H](CCN)NC(=O)[C@@H](NC(=O)[C@H](CCN)NC(=O)[C@@H](N)[C@@H](C)O)CCNC(=O)[C@H]([C@@H](C)O)NC(=O)[C@H](CCN)NC(=O)[C@H](CCN)NC1=O`, the MIC was greater than 64 µg/mL (broth microdilution; ATCC 17978, CAMHB with polysorbate-80; 16 h).
With `c1ccc(CSc2nc3ccccc3cc2CNCCC2CCN(C3CCCC3)CC2)cc1` the MIC was 32 µg/mL (microbial growth, broth dilution).
For `CC(C)C[C@H](NC(=O)[C@H](CC(N)=O)NC(=O)[C@H](CCCNC(=N)N)NC(=O)[C@@H](CC(C)C)NC(=O)[C@H](Cc1ccc2ccccc2c1)NC(=O)[C@H](CC(=O)O)NC(=O)[C@H](CCCCN)NC(=O)[C@@H](CC(C)C)NC(=O)[C@H](CCCNC(=N)N)NC(=O)[C@H](CCC(N)=O)NC(=O)[C@@H](NC(=O)[C@@H](CC(C)C)NC(=O)[C@H](CCCNC(=N)N)NC(=O)[C@H](CCCCN)NC(=O)[C@H](Cc1ccc(C(F)(F)F)cc1)NC(=O)CN)C(C)C)C(=O)N[C@H](C(N)=O)C(C)C`, the MIC was 3.1 µM (broth microdilution; B2367-12).
`CCCCCCCNS(=O)(=O)c1ccc(-n2nnc(/C(C)=N/NC(=N)N)c2C)cc1` has an MIC of 64 µg/mL (microbial growth, broth dilution; AB5075).
`COc1ccc2c(c1)[O][Au-]13[O]c4ccc5ccc(OC)cc5c4C=[N+]1C1CCCCC1[N+]3=C2.F[P-](F)(F)(F)(F)F` (stereo not shown) has an MIC of greater than 20 µM (bacterial growth, broth microdilution; carbapenem-resistant clinical isolate; 24 h).
The MIC of `c1ccc(CN2CCOCCOCCN(CCCCCCCCCCCCCCN3CCOCCOCCN(CCCCCCCCCCCCCCN4CCOCCOCCN(Cc5ccccc5)CCOCCOCC4)CCOCCOCC3)CCOCCOCC2)cc1` is reported as 3 µM (fluoroquinolone-resistant).
With `O=C(NCCNCCO)c1cn(Cc2cccc(Br)c2)c2cc(Cl)c(OCc3ccc(C(F)(F)F)cc3)cc2c1=O` the MIC was less than 0.25 µg/mL (ATCC 19606; ≥80% growth inhibition).
The MIC of `CC(C)CS[C@H]1[C@H](O)[C@@H](N)[C@@H](O[C@H]2[C@H](O[C@@H]3O[C@H](CO)[C@@H](O[C@H]4O[C@@H](CN)[C@@H](O)[C@H](O)[C@H]4N)[C@H]3O)[C@@H](O)[C@H](N)C[C@@H]2N)O[C@@H]1CO` is reported as 8 µg/mL (reference strain).
The MIC of `CCn1[c]([Au-]([Cl])([Cl])[Cl])[n+](CC)c2ccc(C(=O)OC)cc21` is reported as 7.5 µM (broth dilution; DSM 30007; 20 h, 37 °C).
`CC[C@@H](C)[C@@H](NC(=O)[C@@H](C)NC(=O)[C@@H](CCCCN)NC(=O)[C@@H](CC(C)C)NC(=O)[C@@H](C)NC(=O)[C@H](NC(=O)[C@@H](Cc1c[nH]cn1)NC(=O)[C@@H](CC(C)C)NC(=O)[C@H](NC(=O)[C@H](NC(=O)[C@@H](CCCCN)NC(=O)[C@H](NC(=O)[C@@H](C)NC(=O)[C@@H](CO)NC(=O)[C@@H](CCCCN)NC(=O)[C@@H](Cc1ccccc1)NC(=O)[C@H](NC(=O)[C@@H](CCCCN)NC(=O)[C@@H](CC(C)C)NC(=O)[C@@H](Cc1ccccc1)NC(=O)[C@@H](CO)NC(=O)[C@@H](CCCCN)NC(=O)[C@@H](Cc1c[nH]c2ccccc12)NC(=O)[C@@H](CCCCN)NC(C)=O)[C@H](C)O)C(C)C)[C@H](C)O)C(C)C)[C@H](C)O)C(=O)N[C@H](CO)C(=O)N[C@H](CO)C(N)=O` gave an MIC of 0.7 µM (broth microdilution; ATCC 17978; 24 h, 37 °C).
With `CCCCCCCCCC(=O)NCCCC[C@@H](NC(=O)[C@@H](CC(C)C)NC(=O)[C@@H](CCCCN)NC(=O)[C@@H](CCCCNC(=O)[C@@H](CC(C)C)NC(=O)[C@@H](CCN)NC(=O)[C@@H](CCCCNC(=O)[C@@H](Cc1ccccc1)NC(=O)[C@H](N)CCCN)NC(=O)[C@@H](Cc1ccccc1)NC(=O)[C@H](N)CCCN)NC(=O)[C@@H](CC(C)C)NC(=O)[C@@H](CCN)NC(=O)[C@@H](CCCCNC(=O)[C@@H](Cc1ccccc1)NC(=O)[C@H](N)CCCN)NC(=O)[C@@H](Cc1ccccc1)NC(=O)[C@H](N)CCCN)C(N)=O` the MIC was 8 µg/mL (broth microdilution; ATCC 19606; 37 °C).
`CC(=O)N[C@H](CCCCN)C(=O)N[C@H](CC(C)C)C(=O)N[C@H](CCCCN)C(=O)N[C@H](CO)C(=O)N[C@H](CC(C)C)C(=O)N[C@H](CC(C)C)C(=O)N[C@H](CCCCN)C(=O)N[C@@H](C(=O)N[C@H](CC(C)C)C(=O)N[C@H](CO)C(=O)N[C@H](CCCCN)C(=O)N[C@H](C)C(=O)N[C@H](CCCCN)C(=O)N[C@H](CCCCN)C(=O)N[C@H](CCCCN)C(=O)N[C@H](CC(C)C)C(=O)N[C@H](CC(C)C)C(=O)N[C@H](CCCCN)C(=O)N[C@@H](C(=O)N[C@H](C)C(=O)N[C@H](CC(C)C)C(=O)N[C@H](CCCCN)C(=O)N[C@H](C)C(=O)N[C@H](CC(C)C)C(=O)N[C@H](CO)C(=O)N[C@H](CCCCN)C(N)=O)[C@H](C)O)[C@H](C)O` has an MIC of 0.3 µM (821, Mueller-Hinton broth; 24 h, 37 °C).
`CCCCCNS(=O)(=O)c1ccc(-n2nnc(/C(C)=N/NC(=N)N)c2C)cc1` has an MIC of greater than 64 µg/mL (microbial growth, broth dilution; AB5075).
The MIC of `NCC1OC(OC2C(N)CC(N)C(OC3OC(CO)C(O)C(N)C3O)C2OCCCCCCCCCCCCn2cc(CNc3nc(NCc4cn(CCCCCCCCCCCCOC5C(OC6OC(CN)C(O)CC6N)C(N)CC(N)C5OC5OC(CO)C(O)C(N)C5O)nn4)nc(NCc4cn(CCCCCCCCCCCCOC5C(OC6OC(CN)C(O)CC6N)C(N)CC(N)C5OC5OC(CO)C(O)C(N)C5O)nn4)n3)nn2)C(N)CC1O` (stereo not shown) is reported as 64 µg/mL (microbial growth, broth dilution; ATCC17978).
`CC1=C[C@@]2(C)C(=C(C)[C@H]3[C@@H]4C[C@H](C)C[C@H](C)[C@H]4[C@H]4Oc5ccc(cc5)C[C@@H]5C(=O)NC(=O)[C@H]5C(=O)[C@@H]2[C@@H]43)[C@H]1C` has an MIC of 12.5 µM (broth microdilution; ATCC BAA-1605; together with: colistin 0.1 µM).
For `Nc1nc(-c2ccc(NC(=O)c3cc(Cl)cc(Cl)c3)cc2)c[nH]1`, the MIC was 100 µM (ATCC 19606; compound alone).
The MIC of `CC(C)C(O)C(NC(=O)[C@H](Cc1ccc(O)cc1)NC(=O)C(Cc1ccc(O)cc1)[N+](C)(C)C)C(=O)N[C@@H](C)C(=O)O` (stereo partly shown) is reported as greater than 100 µM (ATCC 19606).
`COc1ccc2ccc3c(c2c1)C=[N+]1C2CCCCC2[N+]2=Cc4cccc(OC)c4[O][Au-]21[O]3.F[P-](F)(F)(F)(F)F` (stereo not shown) gave an MIC of 20 µM (bacterial growth, broth microdilution; carbapenem-resistant clinical isolate; 24 h).
`COc1ccc(-c2nc3ccc(-c4c[nH]c(N)n4)cc3[nH]2)cc1` has an MIC of no less than 200 µM (microbial growth, broth dilution; AB5075).
`COc1ccc2ccc3c(c2c1)C=[N+]1C2CCCCC2[N+]2=Cc4cccc(C)c4[O][Au-]21[O]3.F[P-](F)(F)(F)(F)F` (stereo not shown) has an MIC of greater than 20 µM (bacterial growth, broth microdilution; carbapenem-resistant clinical isolate; 24 h).
`COc1c(NC(=O)c2ccc(NC(=O)c3ccc(NC(=O)[C@H](CC#N)NC(=O)c4ccc(NC(=O)/C(C)=C/c5ccc(O)cc5)cc4)cc3)c(OC)c2O)ccc(C(=O)O)c1O` has an MIC of greater than 64 µg/mL (microbial growth; DSM30008).
`CCOC(=O)c1ccc2c(c1)n(CC)[c]([Au-]([Cl])([Cl])[Cl])[n+]2CC` has an MIC of 7.3 µM (broth dilution; DSM 30007; 20 h, 37 °C).
With `COc1ccc2ccc3c(c2c1)C=[N+]1C2CCCCC2[N+]2=Cc4ccc(C)cc4[O][Au-]21[O]3.F[P-](F)(F)(F)(F)F` (stereo not shown) the MIC was greater than 20 µM (bacterial growth, broth microdilution; carbapenem-resistant clinical isolate; 24 h).

Repeated from above:
The MIC of `CCn1[c]([Au-]([Cl])([Cl])[Cl])[n+](CC)c2ccc(C(=O)OC)cc21` is reported as 7.5 µM (broth dilution; DSM 30007; 20 h, 37 °C).
`CC[C@@H](C)[C@@H](NC(=O)[C@@H](C)NC(=O)[C@@H](CCCCN)NC(=O)[C@@H](CC(C)C)NC(=O)[C@@H](C)NC(=O)[C@H](NC(=O)[C@@H](Cc1c[nH]cn1)NC(=O)[C@@H](CC(C)C)NC(=O)[C@H](NC(=O)[C@H](NC(=O)[C@@H](CCCCN)NC(=O)[C@H](NC(=O)[C@@H](C)NC(=O)[C@@H](CO)NC(=O)[C@@H](CCCCN)NC(=O)[C@@H](Cc1ccccc1)NC(=O)[C@H](NC(=O)[C@@H](CCCCN)NC(=O)[C@@H](CC(C)C)NC(=O)[C@@H](Cc1ccccc1)NC(=O)[C@@H](CO)NC(=O)[C@@H](CCCCN)NC(=O)[C@@H](Cc1c[nH]c2ccccc12)NC(=O)[C@@H](CCCCN)NC(C)=O)[C@H](C)O)C(C)C)[C@H](C)O)C(C)C)[C@H](C)O)C(=O)N[C@H](CO)C(=O)N[C@H](CO)C(N)=O` gave an MIC of 0.7 µM (broth microdilution; ATCC 17978; 24 h, 37 °C).
With `CCCCCCCCCC(=O)NCCCC[C@@H](NC(=O)[C@@H](CC(C)C)NC(=O)[C@@H](CCCCN)NC(=O)[C@@H](CCCCNC(=O)[C@@H](CC(C)C)NC(=O)[C@@H](CCN)NC(=O)[C@@H](CCCCNC(=O)[C@@H](Cc1ccccc1)NC(=O)[C@H](N)CCCN)NC(=O)[C@@H](Cc1ccccc1)NC(=O)[C@H](N)CCCN)NC(=O)[C@@H](CC(C)C)NC(=O)[C@@H](CCN)NC(=O)[C@@H](CCCCNC(=O)[C@@H](Cc1ccccc1)NC(=O)[C@H](N)CCCN)NC(=O)[C@@H](Cc1ccccc1)NC(=O)[C@H](N)CCCN)C(N)=O` the MIC was 8 µg/mL (broth microdilution; ATCC 19606; 37 °C).
`CC(=O)N[C@H](CCCCN)C(=O)N[C@H](CC(C)C)C(=O)N[C@H](CCCCN)C(=O)N[C@H](CO)C(=O)N[C@H](CC(C)C)C(=O)N[C@H](CC(C)C)C(=O)N[C@H](CCCCN)C(=O)N[C@@H](C(=O)N[C@H](CC(C)C)C(=O)N[C@H](CO)C(=O)N[C@H](CCCCN)C(=O)N[C@H](C)C(=O)N[C@H](CCCCN)C(=O)N[C@H](CCCCN)C(=O)N[C@H](CCCCN)C(=O)N[C@H](CC(C)C)C(=O)N[C@H](CC(C)C)C(=O)N[C@H](CCCCN)C(=O)N[C@@H](C(=O)N[C@H](C)C(=O)N[C@H](CC(C)C)C(=O)N[C@H](CCCCN)C(=O)N[C@H](C)C(=O)N[C@H](CC(C)C)C(=O)N[C@H](CO)C(=O)N[C@H](CCCCN)C(N)=O)[C@H](C)O)[C@H](C)O` has an MIC of 0.3 µM (821, Mueller-Hinton broth; 24 h, 37 °C).
